Experimental data pooled from the literature.
A part holds a random share of what one study measured.

Block 1
Cell line: HEK-293T
Effect on: pseudovirus infection
Technique: FDA-approved drug library screen
Organism: VSV pseudotyped with SARS-CoV-2 spike
Concentration: 10 µM
Time: 16 h
Relative to: vehicle-treated
Measurement: GFP-positive cells
NC[C@@H]1O[C@H](O[C@H]2[C@@H](O)[C@H](O[C@@H]3[C@@H](O)[C@H](N)C[C@H](N)[C@H]3O[C@H]3O[C@H](CO)[C@@H](O)[C@H](O)[C@H]3N)O[C@@H]2CO)[C@H](N)[C@@H](O)[C@@H]1O: 85.3%
CC(=O)Oc1ccccc1C(=O)O: 87.2%
CN1C(C(=O)Nc2ccccn2)=C(O)c2ccccc2S1(=O)=O: 74.2%
CC[C@H](C)C(=O)O[C@H]1C[C@H](O)C=C2C=C[C@H](C)[C@H](CC[C@@H](O)C[C@@H](O)CC(=O)O)[C@H]21: 76.4%

Block 2
Target: Replicase polyprotein 1ab, main protease (rep, Severe acute respiratory syndrome coronavirus 2, UniProt P0DTD1)
Effect on: enzyme activity
Mode: inhibitor
Concentration: 20 µM
Setting: primary screen
Measurement: inhibition
CCC[C@H](NC(=O)/C(C#N)=C/c1cccc(Br)n1)c1ccccc1: 55.6%
O=C(OC[C@H]1O[C@@H](OC(=O)c2cc(O)c(O)c(OC(=O)c3cc(O)c(O)c(O)c3)c2)[C@H](OC(=O)c2cc(O)c(O)c(OC(=O)c3cc(O)c(O)c(O)c3)c2)[C@@H](OC(=O)c2cc(O)c(O)c(OC(=O)c3cc(O)c(O)c(O)c3)c2)[C@@H]1OC(=O)c1cc(O)c(O)c(OC(=O)c2cc(O)c(O)c(O)c2)c1)c1cc(O)c(O)c(OC(=O)c2cc(O)c(O)c(O)c2)c1: 79.8%
CCN(CC)C(=S)[S-].O.O.O.[Na+]: 96.6%
N[C@@H](Cc1ccc(O)c(O)c1)C(=O)O: 33.4%
NCc1c[nH]c(=S)n1[C@H]1CCc2c(F)cc(F)cc2C1: 97.3%

Block 3
Target: Protein max, full length (MAX, Homo sapiens, UniProt P61244-2, residues 1-151)
Technique: protein-binding microarray
Molecule type: double-stranded DNA, one strand shown
Matrix: in vitro
Concentration: not given
Setting: k-mer, scored over probes, only values ≥0.25
Reading: higher = stronger binding
Measurement: E-score
CGCCCCAC: 0.331
CATGCGGC: 0.435
GCGTGGCA: 0.411
AGCACGTG: 0.496

Block 4
Target: Replicase polyprotein 1ab, polymerase (rep, Severe acute respiratory syndrome coronavirus 2, UniProt P0DTD1)
Effect on: enzyme activity
Mode: inhibitor
Concentration: 20 µM
Measurement: inhibition
CCCCCOC(=O)Nc1nc(=O)n([C@@H]2O[C@H](C)[C@@H](O)[C@H]2O)cc1F: -6.55%
O=C(N[C@H]1CN2CCC1CC2)c1c[nH]c2ccsc2c1=O: 4.96%
Cn1cc(-c2ccc3ncc(Cc4ccc5ncccc5c4)n3n2)cn1: 1.91%
O=C(OC(C(F)(F)F)C(F)(F)F)N1CCC(C(O)(c2ccc3c(c2)OCO3)c2ccc3c(c2)OCO3)CC1: -0.69%
CO[C@H]1/C=C/O[C@@]2(C)Oc3c(C)c(O)c4c(O)c(c5c(nc6cc(C)ccn65)c4c3C2=O)NC(=O)/C(C)=C\C=C\[C@H](C)[C@H](O)[C@@H](C)[C@@H](O)[C@@H](C)[C@H](OC(C)=O)[C@@H]1C: 0.61%
CC(=O)Nc1ccc(OC(C)=O)cc1: -3.45%
O=C1N=C(O)NC1(c1ccccc1)c1ccccc1: 22.4%
O=C(c1ccc(/C=C/c2n[nH]c3ccccc23)cc1)N1CCNCC1: 17.9%
COC(=O)N[C@H](C(=O)N1CCC[C@H]1C(=O)Nc1ccc([C@@H]2CC[C@@H](c3ccc(NC(=O)[C@@H]4CCCN4C(=O)[C@@H](NC(=O)OC)C(C)C)cc3)N2c2ccc(C(C)(C)C)cc2)cc1)C(C)C: -1.01%
COc1c2occc2c(OC)c2c(=O)cc(C)oc12: 4.54%
O=C(O)COc1cccc(CN(Cc2ccc(-n3cccn3)cc2)S(=O)(=O)c2cccnc2)c1: 2.24%
CNC(=O)c1ccc(Nc2ncc(C(F)(F)F)c(NCc3nccnc3N(C)S(C)(=O)=O)n2)cc1: -1.75%
Oc1ccc(C2CNCCc3c2cc(O)c(O)c3Cl)cc1 (stereo not drawn): 0.13%
CNCc1ccc(C)c(NC(=O)c2ccc(Nc3nc(-c4ccccc4)c4ccccc4n3)cc2)c1: 13.8%
CCN1C[C@]2(OC(=O)c3ccccc3NC(C)=O)CC[C@H](OC)[C@@]34[C@@H]2C[C@@H]([C@@H]13)[C@@]1(O)C[C@H](OC)[C@H]2C[C@@H]4[C@]1(O)[C@H]2OC: -4.33%

Block 5
Target: Centromere-binding protein 1, full length, His-tagged (CBF1, Saccharomyces cerevisiae, UniProt P17106, residues 1-351)
Chain of UniProt P17106 (whole entry, looked up): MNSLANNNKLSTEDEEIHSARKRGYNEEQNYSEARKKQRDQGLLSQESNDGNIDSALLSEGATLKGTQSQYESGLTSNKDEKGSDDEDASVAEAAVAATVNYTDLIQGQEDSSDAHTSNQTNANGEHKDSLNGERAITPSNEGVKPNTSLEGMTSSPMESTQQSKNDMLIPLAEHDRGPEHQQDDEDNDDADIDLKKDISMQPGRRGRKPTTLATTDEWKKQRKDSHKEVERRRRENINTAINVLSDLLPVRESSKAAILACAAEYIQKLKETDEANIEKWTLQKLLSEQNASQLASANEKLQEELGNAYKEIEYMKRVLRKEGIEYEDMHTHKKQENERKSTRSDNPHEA
Technique: competition protein-binding microarray
Molecule type: double-stranded DNA, one strand shown
Matrix: in vitro
Concentration: 2 µM
Setting: whole 60-bp probe, lowest competitor level
With: Pho4 competitor, 0.05 µM
Reading: higher = stronger binding
Measurement: fluorescence intensity
Shared flanks, not repeated: … GTCTTGATTCGCTTGACGCTGCTG
GCCGCATTGCACCTTGTCGTGATGGATTCTAAGTAC: 84.1 a.u.
GCCCGCCGGCGACGTCACGCGGCCGTTACGGCGCTC: 218 a.u.
GATAATTCTGTCCTTCACGTGGTCGAAACCGGTTAT: 1170 a.u.
TGCGCAACAACTTGTCACCTTACTTTATGTCTAGAA: 74.6 a.u.
CATTGCGAGGGTACATCCGTGCAATATTTCTGAAAA: 71.3 a.u.
TTCCTTTCTCATCCCCTCGTGAAGCGACTCGGCCCC: 74.1 a.u.
TCACGGAAATCTTATCATGTGTCGCCCCATCCAATT: 217 a.u.
TTTATGTGGCCTTAAATTTTCGACCTATGGTTCACT: 73.1 a.u.

Excerpt of the above (block 2):
O=C(OC[C@H]1O[C@@H](OC(=O)c2cc(O)c(O)c(OC(=O)c3cc(O)c(O)c(O)c3)c2)[C@H](OC(=O)c2cc(O)c(O)c(OC(=O)c3cc(O)c(O)c(O)c3)c2)[C@@H](OC(=O)c2cc(O)c(O)c(OC(=O)c3cc(O)c(O)c(O)c3)c2)[C@@H]1OC(=O)c1cc(O)c(O)c(OC(=O)c2cc(O)c(O)c(O)c2)c1)c1cc(O)c(O)c(OC(=O)c2cc(O)c(O)c(O)c2)c1: 79.8%
NCc1c[nH]c(=S)n1[C@H]1CCc2c(F)cc(F)cc2C1: 97.3%
N[C@@H](Cc1ccc(O)c(O)c1)C(=O)O: 33.4%
CCC[C@H](NC(=O)/C(C#N)=C/c1cccc(Br)n1)c1ccccc1: 55.6%
CCN(CC)C(=S)[S-].O.O.O.[Na+]: 96.6%
